Measured values from different studies.
Protocols differ between the studies behind these lines. Values joined by “and” are separate records of one study, mostly repeats; a detail may differ. ± gives the spread as reported.
Beta-lactamase CTX-M-27: Beta-lactamase CTX-M-27 (Escherichia coli, UniProt Q840M4)
Sequence of UniProt Q13526 (whole entry, unmodified, looked up): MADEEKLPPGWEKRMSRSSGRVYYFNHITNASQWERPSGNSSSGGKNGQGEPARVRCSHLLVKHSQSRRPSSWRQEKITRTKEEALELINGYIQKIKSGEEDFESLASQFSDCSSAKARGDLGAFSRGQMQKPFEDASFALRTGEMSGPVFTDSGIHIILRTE
Sequence of UniProt P0DMV8 (whole entry, looked up): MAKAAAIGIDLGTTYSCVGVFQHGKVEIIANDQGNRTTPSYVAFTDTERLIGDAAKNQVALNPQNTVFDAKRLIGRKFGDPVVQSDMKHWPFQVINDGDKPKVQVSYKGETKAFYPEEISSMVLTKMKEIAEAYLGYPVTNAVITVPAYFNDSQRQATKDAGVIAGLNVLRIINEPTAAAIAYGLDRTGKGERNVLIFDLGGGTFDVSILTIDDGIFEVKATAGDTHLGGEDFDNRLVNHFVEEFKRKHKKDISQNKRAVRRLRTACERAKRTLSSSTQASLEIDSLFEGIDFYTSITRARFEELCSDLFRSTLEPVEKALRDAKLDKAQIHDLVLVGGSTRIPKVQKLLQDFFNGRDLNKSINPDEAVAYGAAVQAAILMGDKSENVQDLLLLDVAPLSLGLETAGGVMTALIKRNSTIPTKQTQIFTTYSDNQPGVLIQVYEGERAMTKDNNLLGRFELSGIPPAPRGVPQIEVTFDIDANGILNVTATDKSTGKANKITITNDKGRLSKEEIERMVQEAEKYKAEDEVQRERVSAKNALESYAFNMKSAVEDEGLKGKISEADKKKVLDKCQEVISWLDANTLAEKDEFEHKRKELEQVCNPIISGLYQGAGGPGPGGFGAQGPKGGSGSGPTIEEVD
Sequence of UniProt A6QGU8 (whole entry, looked up): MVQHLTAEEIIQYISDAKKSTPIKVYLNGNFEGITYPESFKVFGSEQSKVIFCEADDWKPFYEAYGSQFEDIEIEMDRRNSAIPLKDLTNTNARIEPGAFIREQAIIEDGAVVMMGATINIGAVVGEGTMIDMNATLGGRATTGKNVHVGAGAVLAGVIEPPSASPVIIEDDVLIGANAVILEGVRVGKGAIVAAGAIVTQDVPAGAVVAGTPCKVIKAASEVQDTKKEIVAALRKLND
Sequence of UniProt Q9LIR4 (whole entry, looked up): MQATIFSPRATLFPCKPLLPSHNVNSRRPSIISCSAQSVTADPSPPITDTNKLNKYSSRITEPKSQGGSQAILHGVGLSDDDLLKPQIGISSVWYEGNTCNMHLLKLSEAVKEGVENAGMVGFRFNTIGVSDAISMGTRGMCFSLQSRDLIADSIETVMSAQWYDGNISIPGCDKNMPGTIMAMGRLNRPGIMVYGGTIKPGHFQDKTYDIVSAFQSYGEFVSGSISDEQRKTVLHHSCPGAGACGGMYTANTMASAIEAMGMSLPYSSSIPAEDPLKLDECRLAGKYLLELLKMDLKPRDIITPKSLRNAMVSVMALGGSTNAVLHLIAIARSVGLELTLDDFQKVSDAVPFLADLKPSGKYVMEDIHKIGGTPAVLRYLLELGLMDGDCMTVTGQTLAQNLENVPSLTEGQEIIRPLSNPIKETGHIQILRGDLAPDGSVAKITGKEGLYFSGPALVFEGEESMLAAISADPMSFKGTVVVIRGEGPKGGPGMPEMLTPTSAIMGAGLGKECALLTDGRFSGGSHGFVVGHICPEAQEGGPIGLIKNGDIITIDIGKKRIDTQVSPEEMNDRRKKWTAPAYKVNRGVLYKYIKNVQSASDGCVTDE
Sequence of UniProt A6TAP2 (whole entry, looked up): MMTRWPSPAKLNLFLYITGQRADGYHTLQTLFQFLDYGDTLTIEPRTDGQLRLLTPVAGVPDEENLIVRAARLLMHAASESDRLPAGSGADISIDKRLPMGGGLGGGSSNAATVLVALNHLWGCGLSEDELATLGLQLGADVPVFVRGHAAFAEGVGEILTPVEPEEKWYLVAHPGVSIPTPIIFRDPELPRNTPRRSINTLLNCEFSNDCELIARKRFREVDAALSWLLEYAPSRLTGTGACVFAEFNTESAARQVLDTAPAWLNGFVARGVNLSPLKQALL
Sequence of UniProt Q8N8S7 (whole entry, looked up): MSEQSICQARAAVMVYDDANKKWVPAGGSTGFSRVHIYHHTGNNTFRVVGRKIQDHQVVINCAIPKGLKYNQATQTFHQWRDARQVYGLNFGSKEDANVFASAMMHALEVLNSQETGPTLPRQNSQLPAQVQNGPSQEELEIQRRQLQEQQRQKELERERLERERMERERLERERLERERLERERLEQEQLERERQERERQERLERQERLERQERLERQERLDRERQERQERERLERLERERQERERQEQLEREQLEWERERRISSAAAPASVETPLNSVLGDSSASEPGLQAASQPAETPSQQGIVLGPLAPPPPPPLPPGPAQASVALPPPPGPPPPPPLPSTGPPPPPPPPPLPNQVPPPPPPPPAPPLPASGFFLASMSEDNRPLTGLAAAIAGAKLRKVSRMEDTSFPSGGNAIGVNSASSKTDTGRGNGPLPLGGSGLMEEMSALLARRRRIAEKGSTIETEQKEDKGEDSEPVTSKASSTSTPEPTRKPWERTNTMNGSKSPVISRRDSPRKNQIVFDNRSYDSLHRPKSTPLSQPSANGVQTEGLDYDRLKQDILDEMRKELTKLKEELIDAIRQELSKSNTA
Sequence of UniProt Q07741 (whole entry, looked up): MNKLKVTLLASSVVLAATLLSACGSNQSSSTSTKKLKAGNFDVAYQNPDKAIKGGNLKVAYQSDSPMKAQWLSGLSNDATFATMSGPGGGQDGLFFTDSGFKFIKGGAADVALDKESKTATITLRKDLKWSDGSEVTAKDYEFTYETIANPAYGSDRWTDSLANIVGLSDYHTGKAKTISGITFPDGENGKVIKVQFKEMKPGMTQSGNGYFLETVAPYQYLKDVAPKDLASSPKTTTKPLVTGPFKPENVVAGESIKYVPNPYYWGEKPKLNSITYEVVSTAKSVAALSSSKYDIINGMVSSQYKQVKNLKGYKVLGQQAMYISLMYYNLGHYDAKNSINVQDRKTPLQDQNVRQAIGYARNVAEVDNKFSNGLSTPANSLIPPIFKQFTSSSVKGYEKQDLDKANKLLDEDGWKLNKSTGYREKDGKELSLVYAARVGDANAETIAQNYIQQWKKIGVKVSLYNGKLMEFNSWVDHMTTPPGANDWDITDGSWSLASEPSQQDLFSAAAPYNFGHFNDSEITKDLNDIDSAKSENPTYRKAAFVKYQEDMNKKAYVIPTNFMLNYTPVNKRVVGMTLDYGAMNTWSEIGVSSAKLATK
Sequence of UniProt Q00987 (whole entry, looked up): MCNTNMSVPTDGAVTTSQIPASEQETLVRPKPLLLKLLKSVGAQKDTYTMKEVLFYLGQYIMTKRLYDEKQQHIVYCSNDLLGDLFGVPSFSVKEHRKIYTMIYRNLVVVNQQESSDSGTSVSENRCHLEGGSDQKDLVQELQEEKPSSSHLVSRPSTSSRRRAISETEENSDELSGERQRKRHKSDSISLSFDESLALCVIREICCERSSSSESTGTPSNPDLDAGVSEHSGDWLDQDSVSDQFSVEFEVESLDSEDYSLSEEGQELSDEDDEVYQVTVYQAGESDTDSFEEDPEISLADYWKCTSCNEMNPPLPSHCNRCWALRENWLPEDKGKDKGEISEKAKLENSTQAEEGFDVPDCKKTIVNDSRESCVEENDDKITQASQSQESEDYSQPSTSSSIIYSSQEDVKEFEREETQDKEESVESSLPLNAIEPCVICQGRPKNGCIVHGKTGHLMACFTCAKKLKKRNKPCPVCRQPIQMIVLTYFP
Sequence of UniProt P10997 (whole entry, looked up): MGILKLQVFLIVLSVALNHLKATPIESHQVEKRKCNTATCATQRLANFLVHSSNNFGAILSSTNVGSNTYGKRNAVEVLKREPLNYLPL
Sequence of UniProt Q9WYW0 (whole entry, looked up): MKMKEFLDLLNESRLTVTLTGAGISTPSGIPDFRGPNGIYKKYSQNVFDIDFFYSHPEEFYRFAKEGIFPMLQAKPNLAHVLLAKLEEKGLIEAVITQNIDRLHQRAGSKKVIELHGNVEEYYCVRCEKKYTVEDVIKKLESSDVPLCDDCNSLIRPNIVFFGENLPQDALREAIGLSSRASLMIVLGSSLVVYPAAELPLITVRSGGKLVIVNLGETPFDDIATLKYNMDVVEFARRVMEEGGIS
Sequence of UniProt P55072 (whole entry, looked up): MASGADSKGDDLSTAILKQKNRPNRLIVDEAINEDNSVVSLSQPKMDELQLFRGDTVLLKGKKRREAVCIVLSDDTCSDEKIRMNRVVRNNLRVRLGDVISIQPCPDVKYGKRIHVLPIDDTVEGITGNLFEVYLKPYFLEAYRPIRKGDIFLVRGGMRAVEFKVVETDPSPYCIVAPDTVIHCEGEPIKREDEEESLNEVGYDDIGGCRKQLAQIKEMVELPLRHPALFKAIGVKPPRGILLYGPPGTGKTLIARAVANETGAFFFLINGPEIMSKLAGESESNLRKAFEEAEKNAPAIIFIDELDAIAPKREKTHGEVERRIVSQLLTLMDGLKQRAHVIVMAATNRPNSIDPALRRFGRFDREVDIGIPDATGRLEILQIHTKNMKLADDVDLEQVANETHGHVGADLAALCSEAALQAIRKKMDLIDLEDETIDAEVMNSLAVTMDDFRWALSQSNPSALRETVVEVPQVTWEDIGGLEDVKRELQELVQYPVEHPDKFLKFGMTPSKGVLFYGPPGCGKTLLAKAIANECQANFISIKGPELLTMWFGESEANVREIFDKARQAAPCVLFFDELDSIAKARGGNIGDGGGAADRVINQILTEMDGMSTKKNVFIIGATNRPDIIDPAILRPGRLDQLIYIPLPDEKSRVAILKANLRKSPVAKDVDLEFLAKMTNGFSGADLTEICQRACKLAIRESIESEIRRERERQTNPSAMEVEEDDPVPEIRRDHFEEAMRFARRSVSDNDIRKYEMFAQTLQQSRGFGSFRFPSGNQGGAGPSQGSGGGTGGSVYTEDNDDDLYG

| SMILES | target | test | test system | setting | Kd |
| --- | --- | --- | --- | --- | --- |
| O=C(Nc1cccc(-c2nn[nH]n2)c1)c1cc(-c2ccccn2)cc(C(F)(F)F)c1 | Beta-lactamase CTX-M-27 | surface plasmon resonance |  | 25 °C | 1.79 ± 0.05 µM |
| CCOC(=O)[C@@H]1CC[C@@H]2C=C[C@H]3CCN(C(=O)[C@@H]4CC[C@H]5C=C[C@]6(CCCN6C(=O)[C@H](Cc6ccccc6Cl)NC(=O)[C@H](CCC(=O)O)NC(=O)[C@H](Cc6ccccc6)NC(=O)[C@H](CO)NC(C)=O)C(=O)N54)[C@@H]3C(=O)N21 | Protein enabled homolog (ENAH, UniProt Q8N8S7) | binding, fluorescence |  | pH 7.3 | 2.9 µM |
| N=C(N)NCCC[C@H](NC(=O)[C@H](Cc1ccccc1)NC(=O)[C@@H]1CCCN1C(=O)[C@H](CO)NC(=O)[C@H](Cc1ccccc1)NC(=O)CNC(=O)[C@@H]1CCCN1C(=O)[C@@H]1CCCN1C(=O)[C@@H](N)CCCNC(=N)N)C(=O)N[C@@H](CCCCNS(=O)(=O)c1ccc(C2=c3cc4c5c(c3Oc3c2cc2c6c3CCCN6CCC2)CCC[N+]=5CCC4)c(S(=O)(=O)[O-])c1)C(=O)O | Oligopeptide-binding protein OppA (oppA, Lactococcus lactis subsp. lactis, UniProt Q07741) | binding, fluorescence anisotropy |  | pH 7, 18 °C, added: dye-labelled peptide | 15.4 ± 0.4 µM |
| C=Cc1cc(OC)c2c(c1)c(=O)oc1c2cc(OC)c2c(O)ccc([C@@H]3O[C@H](C)[C@H](O)[C@@](C)(O)[C@H]3O)c21 | 2,3,4,5-tetrahydropyridine-2,6-dicarboxylate N-acetyltransferase (dapH, Staphylococcus aureus, UniProt A6QGU8) | binding, microscale thermophoresis |  |  | 0.00285 ± 0.0019 µM |
| NC(=O)Cc1c[nH]c2ccccc12 | txtE (Streptomyces scabiei, UniProt C9ZDC6) | binding |  | pH 8 | 1800 µM and ~1800 µM |
| CC(C)C[C@@H]1NC(=O)CN(C)C(=O)[C@H](Cc2c[nH]c3ccccc23)NC(=O)[C@H](CCC(=O)O)NC(=O)[C@H](Cc2ccccc2)N(C)C(=O)[C@H](Cc2ccccc2)NC(=O)CSC[C@@H](C(N)=O)NC(=O)[C@H](CCCCN)NC(=O)[C@H](C(C)C)NC(=O)[C@H](Cc2ccc(O)cc2)NC(=O)[C@H](Cc2ccc(O)cc2)NC(=O)[C@H](C(C)C)NC(=O)[C@H](Cc2ccccc2)N(C)C(=O)[C@H](CCCNC(=N)N)NC1=O | AT-rich interactive domain-containing protein 1B (ARID1B, Homo sapiens, UniProt Q8NFD5) | SPR |  | 278 K | 0.0008 µM |
| O=C(O)c1cc(Br)c[nH]1 | 4-diphosphocytidyl-2-C-methyl-D-erythritol kinase (ispE, Klebsiella pneumoniae subsp. pneumoniae, UniProt A6TAP2) | binding, microscale thermophoresis | Klebsiella pneumoniae |  | 213 µM |
| CC(=O)NCCCC[C@H](NC(=O)[C@H](CCCCN)NC(=O)[C@H](Cc1c[nH]cn1)NC(=O)[C@H](CCCNC(=N)N)NC(=O)[C@H](CO)NC(=O)[C@@H](NC(=O)[C@H](CO)NC(=O)[C@H](CCC(N)=O)NC(=O)CNC(=O)[C@H](CCCCN)NC(=O)[C@@H](N)CCCCN)[C@@H](C)O)C(=O)N[C@@H](CC(C)C)C(=O)N[C@@H](CCCCN)C(=O)N[C@@H](Cc1ccccc1)C(=O)N[C@@H](CCCCN)C(=O)N[C@H](C(=O)N[C@@H](CCC(=O)O)C(=O)NCC(=O)O)[C@@H](C)O | NAD-dependent protein deacetylase (cobB, Thermotoga maritima, UniProt Q9WYW0) | acetylated p53 peptide binding, intrinsic tyrosine fluorescence |  | pH 9.2, target 0.4 µM | 27.8 µM |
| COc1ccc(C[C@@H](NC(=O)Cc2ccccc2)C(=O)N[C@@H](Cc2ccccc2)C(=O)N[C@@H](CCC(N)=O)C(=O)N[C@@H](CC(N)=O)C(=O)N[C@@H](CCCNC(=N)N)C(=O)N2CCC[C@H]2C(=O)N[C@@H](CCCNC(=N)N)C(=O)N[C@@H](Cc2ccc(O)c(I)c2)C(N)=O)cc1 | Vasopressin V1a receptor (Mesocricetus auratus, UniProt A0ABM2Y7A2) | saturation binding | hamster brain sections |  | 0.000262 µM |
| CC[C@H](C)[C@@H]1NC(=O)CNC(=O)[C@H](CCSC)NC(=O)[C@H](C(C)C)NC(=O)[C@H]([C@@H](C)O)NC(=O)[C@@H]2CSSC[C@@H]3NC(=O)[C@H](Cc4c[nH]cn4)NC(=O)[C@@H](NC(=O)[C@@H](NC(=O)[C@H](Cc4ccccc4)NC(=O)[C@H](C)N)[C@@H](C)O)CSSC[C@@H](C(=O)N[C@@H](CC(C)C)C(=O)O)NC(=O)[C@H](CSSC[C@H](NC(=O)[C@H](CO)NC(=O)[C@H](CCCNC(=N)N)NC(=O)[C@H](CCCNC(=N)N)NC3=O)C(=O)N[C@@H](Cc3ccc(O)cc3)C(=O)N[C@@H](CO)C(=O)N[C@@H]([C@@H](C)O)C(=O)N[C@@H](CCC(=O)O)C(=O)N[C@@H](Cc3ccc(O)cc3)C(=O)N[C@@H](CO)C(=O)N[C@@H](Cc3ccc(O)cc3)C(=O)NCC(=O)N[C@@H]([C@@H](C)O)C(=O)N2)NC(=O)[C@H](Cc2ccccc2)NC(=O)[C@H](CCCNC(=N)N)NC(=O)[C@H](Cc2c[nH]cn2)NC(=O)[C@H](CC(N)=O)NC1=O | IAPP (Homo sapiens, UniProt P10997) | binding, SPR |  |  | 6.21 µM |
| N=C(N)NCCC[C@@H]1NC(=O)[C@H](Cc2csc3ccccc23)NC(=O)[C@@H](Cc2ccccc2)NC(=O)[C@H](Cc2ccccc2)NC(=O)[C@H](CCC(=O)NCCOCCOCC(=O)N[C@@H](CCCCNC(=O)c2ccc3c(c2)C(=O)OC32c3ccc4cc(O)ccc4c3Oc3c2ccc2cc(O)ccc32)C(N)=O)NC(=O)[C@@H](CCCNC(=N)N)NC(=O)[C@H](CCCNC(=N)N)NC(=O)[C@@H](CCCNC(=N)N)NC1=O | fetal bovine serum proteins | binding, fluorescence polarization |  | 1 h | 1.2 ± 0.4 µM |
| CCOC(=O)CCCOc1ccc(C(=C2C=CC(=[N+](C)C)C=C2)c2ccc(N(C)C)cc2)cc1 | dL5** fluorogen-activating protein | fluorescence turn-on |  |  | 0.003 µM |
| O=C(Nc1cccc(-c2nn[nH]n2)c1)c1cc(-c2ccco2)cc(C(F)(F)F)c1 | Beta-lactamase CTX-M-27 | surface plasmon resonance |  | 25 °C | 2.5 ± 0.07 µM |
| CC(=O)N(Cc1ccccc1)[C@@H](C)C(=O)N(C)[C@@H](C)C(=O)N(Cc1c[nH]c2cc(Cl)ccc12)[C@@H](C)C(=O)N(C)[C@@H](C)C(=O)N(CCC(C)(C)C)[C@@H](C)C(=O)N1CCNCC1 | E3 ubiquitin-protein ligase Mdm2, N-terminal domain 17-125 (MDM2, Homo sapiens, UniProt Q00987) | binding, SPR kinetic fit | PBS with Tween | 10 °C, immobilised peptoid | 0.0095 µM |
| CSCC[C@H](NC(=O)[C@@H](NC(=O)[C@H](CC(C)C)NC(=O)[C@@H](NC(=O)[C@H](Cc1c[nH]cn1)NC(=O)CCCCCNC(=O)[C@H](CCCNC(=N)N)NC(=O)[C@H](CCCNC(=N)N)NC(=O)[C@H](CCCNC(=N)N)NC(=O)[C@H](CCC(N)=O)NC(=O)[C@H](CCCNC(=N)N)NC(=O)[C@H](CCCNC(=N)N)NC(=O)[C@H](CCCCN)NC(=O)[C@H](CCCCN)NC(=O)[C@H](CCCNC(=N)N)NC(=O)CNC(=O)[C@@H](N)Cc1ccc(O)cc1)C(C)C)C(C)C)C(=O)N[C@@H](CS)C(=O)N[C@@H](C)C(=O)N[C@H](C(N)=O)[C@@H](C)O | VCP (Homo sapiens, UniProt P55072) | binding, BLI |  |  | 14 µM |
| COC(=O)[C@H](Cc1ccccc1)NC(=O)[C@@H]1CCCN1C(=O)[C@H](CCCNC(=N)N)NC(=O)[C@H](C)NC(C)=O | PIN1 (Homo sapiens, UniProt Q13526) | binding |  | pH 7.4 | 30.5 µM |
| CC[C@H](C)[C@H]1C(=O)O[C@H](C(C)C)C(=O)N(C)[C@@H]([C@@H](C)CC)C(=O)O[C@H](C(C)C)C(=O)N(C)[C@@H]([C@@H](C)CC)C(=O)O[C@H](C(C)C)C(=O)N1C | HSPA1A (Homo sapiens, UniProt P0DMV8) | binding, SPR |  |  | ~246 µM |
| CCCN1C(=O)C(O)(C(=O)O)Oc2cc(F)ccc21 (stereo not shown) | Dihydroxy-acid dehydratase, chloroplastic (DHAD, Arabidopsis thaliana, UniProt Q9LIR4) | microscale thermophoresis |  |  | < 3 µM |
| C[C@@H]1NC(=O)[C@H](CCCNC(=N)N)NC(=O)[C@H](Cc2ccc3ccccc3c2)NC(=O)[C@@H]2CCCCN2C(=O)[C@@H]([C@H](C)OP(=O)(O)O)NC(=O)CN(C)C(=O)[C@@H](C)NC(=O)c2cc3cc(c2)C(=O)NC[C@@H](C(=O)N[C@@H](CCCCN)C(N)=O)NC(=O)[C@H](CCCNC(=N)N)NC(=O)[C@H](CCCNC(=N)N)NC(=O)[C@H](CCCNC(=N)N)NC(=O)[C@H](CCCNC(=N)N)NC(=O)[C@H](Cc2ccc4ccccc4c2)NC(=O)[C@H](Cc2ccccc2)NC(=O)[C@H](CNC3=O)NC1=O | PIN1 (Homo sapiens, UniProt Q13526, S16A/Y23A) | binding, fluorescence anisotropy |  |  | 0.13 ± 0.044 µM |

Repeated from above:
| SMILES | target | test | test system | setting | Kd |
| --- | --- | --- | --- | --- | --- |
| CSCC[C@H](NC(=O)[C@@H](NC(=O)[C@H](CC(C)C)NC(=O)[C@@H](NC(=O)[C@H](Cc1c[nH]cn1)NC(=O)CCCCCNC(=O)[C@H](CCCNC(=N)N)NC(=O)[C@H](CCCNC(=N)N)NC(=O)[C@H](CCCNC(=N)N)NC(=O)[C@H](CCC(N)=O)NC(=O)[C@H](CCCNC(=N)N)NC(=O)[C@H](CCCNC(=N)N)NC(=O)[C@H](CCCCN)NC(=O)[C@H](CCCCN)NC(=O)[C@H](CCCNC(=N)N)NC(=O)CNC(=O)[C@@H](N)Cc1ccc(O)cc1)C(C)C)C(C)C)C(=O)N[C@@H](CS)C(=O)N[C@@H](C)C(=O)N[C@H](C(N)=O)[C@@H](C)O | VCP (Homo sapiens, UniProt P55072) | binding, BLI |  |  | 14 µM |
